Results of several laboratories.
Protocols differ between the studies behind these lines.

CC(C)n1c(Nc2cccnc2)nc2cnc(Nc3ccc(N4CCN(C)CC4)cc3)nc21 — result for “subjects with grade 3 hypertriglyceridemia”: 2.4% (healthy male humans; oral, dose not given, drug interaction study, all arms).
C[C@@H](c1nc(-c2ccc(C#N)cc2)cs1)[C@](O)(Cn1cncn1)c1cc(F)ccc1F — result for “subjects with adverse event”: 8.7% (nervous system disorders; human; oral, dose not given, together with: ethinyl estradiol/norethindrone).
C[C@H]1CN(C(=O)CC#N)[C@]12CCN(c1ncnc3[nH]ccc13)C2 — result for “subjects with catheter site bruise”: 0% (healthy human; oral, 3 mg single).
Under “subjects with Dysgeusia adverse event”, Cc1cc(-c2nccc3c2ccn3CC(=O)Nc2ccc(-c3cnccn3)cn2)ccn1 is recorded as 0% (human; 5 mg once daily, multiple ascending dose).
For CC(C)(C(=O)N1CCOc2c(C#N)cncc2C1)C(F)F, “subjects with adverse event” read 0% (item: contact dermatitis; human; oral, 20 mg once daily, 14 days, multiple ascending dose).
Under “subjects with abdominal pain”, C[C@@H](Oc1ccc(S(C)(=O)=O)cc1C(=O)N1C[C@@H]2C[C@]2(c2cc(C(F)(F)F)on2)C1)C(F)(F)F is recorded as 16.7% (human; oral plus intravenous microtracer, dose not given).
CN1CCN(c2cccc3c2CCN(C(=O)/C=C/c2c(-n4cnnn4)ccc(Cl)c2F)[C@@H]3C(=O)Nc2ccc(C(=O)O)cc2)C(=O)C1: “subjects with any adverse event” 22.2% (healthy human subjects; intravenous infusion, 1 mg/h, 5 days).
For CNC(=O)c1ccc(-c2cnc3ncc(Cc4ccc5ncccc5c4)n3n2)cc1F, “subjects with adverse events” read 70.4% (item: adverse events of grade 1 or higher; healthy human subjects; oral, 200 mg, inhibition cohort, all-causality, together with: itraconazole 200 mg/day).
